Assay results pooled from the literature.
Parts stem from different laboratories: compare values within a part only.

Study 1 — method: RNA Bind-n-Seq; form: RNA; medium: in vitro; concentration: not given; reference: input RNA pool; reading: higher = stronger binding
Target: RING finger protein unkempt homolog, zinc fingers 1-6, GST-SBP tag (UNK, Homo sapiens, UniProt Q9C0B0, residues 30-357)
Setting: RNA with constant flanks, human and mouse sites, ends assumed
Construct (chain): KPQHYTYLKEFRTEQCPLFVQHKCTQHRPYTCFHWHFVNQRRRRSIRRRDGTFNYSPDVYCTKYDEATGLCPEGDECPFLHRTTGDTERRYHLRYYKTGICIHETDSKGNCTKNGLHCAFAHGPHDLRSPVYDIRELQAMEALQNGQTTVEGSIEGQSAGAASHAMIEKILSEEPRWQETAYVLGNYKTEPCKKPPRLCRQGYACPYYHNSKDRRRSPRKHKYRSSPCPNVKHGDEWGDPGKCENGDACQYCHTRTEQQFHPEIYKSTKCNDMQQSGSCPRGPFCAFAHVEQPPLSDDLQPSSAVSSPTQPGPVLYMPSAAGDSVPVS
With `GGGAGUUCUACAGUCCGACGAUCUCUGCUCCUGGAAAAGAGAAAAGUGAAACUGAUAAGGAAACUUCUUUGGUAAAGCAAACAUUAGCAAAACUUCAACAACAAGAACAAAGGGAGGAGGCUCAGUGGACACCUACUAAAUUGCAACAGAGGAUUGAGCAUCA` the bound/input enrichment was 0.58 ratio.
With `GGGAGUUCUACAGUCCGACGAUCGCAGAAUACCCUGAUGAGUAUCAUGGCGAGUACCAGGAUGACUACCCCAGAGAUUACCAAUAUAGCGACCAAGGCAUUGAUUAUUAGAUCCACACAGAAGGAGCUCAGUAUUUAGUCCUUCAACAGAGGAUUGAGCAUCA` the bound/input enrichment was 1.36 ratio.
`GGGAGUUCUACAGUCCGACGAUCUGGCCAUCUCUGCCACUUCGGCACAGUAACCACCUUGGGACUAAGACCACCUAGAUAGUGAGAGCUGAACAACAACCAGACCAUGUCACACAAGCCAGAAACUCCAGUUACCUUUGCCAACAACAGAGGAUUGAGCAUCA` has a bound/input enrichment of 0.244 ratio.
The bound/input enrichment of `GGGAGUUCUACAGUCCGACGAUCGGGCUGCUUUACGCCCUGAGGAUCCCUUUGAGGCUGUGUGAGAAUUUGGCAGCGGUGACUGUAUUUUUAAAUUCAUUGACACCCAAAUUCUAUGUGGCACUUACAGGGACCUCUUCAUUGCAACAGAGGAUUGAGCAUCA` is reported as 0.0736 ratio.
With `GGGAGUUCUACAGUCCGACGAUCGCCUGGCUUGUGGAUCAUGUAUAUGCCAUCCGCGAGGCAGCCACCAGCAACCUGAAGAAGCUAGUGGAAAAGUUUGGGAAGGAGUGGGCCCAUGCCACAAUCAUCCCCAAGGUCUUGGCCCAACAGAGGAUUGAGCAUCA` the bound/input enrichment was 0.0852 ratio.
`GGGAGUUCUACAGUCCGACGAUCGAAAUGAGGGCAAGAGCAAUUAAGGCUCUCAUGAAAGCUGGUGAUAUAAAAAAGCCAGUGUAGUUUUCUGACUUGAAUAUUAUGUGUGUUUGAAUGAAGCCAUGUCAUAUAAUUUUGUAUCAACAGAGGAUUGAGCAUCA` has a bound/input enrichment of 0.32 ratio.
For `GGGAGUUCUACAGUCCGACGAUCAACGGUGCCCCUGCAUGUGCUCAGAAGCUCUAUGCAGAACUGUGCCAAGGCAUCGUGGACAUAGCCAUUUCCAGUGUCUUCCCACCCCCAGAUGUGGAGCAACCUCAGACCCAGCCAGCUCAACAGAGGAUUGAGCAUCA`, the bound/input enrichment was 0.253 ratio.
`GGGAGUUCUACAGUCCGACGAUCGUGAUUAUUGAAGAGUCUCAGCCACAAAAAAUAAAGAUGCUGUUAGAGAAAUUUGUUGAAGAAUGCAAGUUCCCUCCAGUGCCAGAUGCCAUUUGUUGCUAUCAGAAGUGCCAUGGAUAUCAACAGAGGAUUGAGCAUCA` has a bound/input enrichment of 0.295 ratio.

Study 2 — method: RNA Bind-n-Seq; form: RNA; medium: in vitro; concentration: 365 nM; reference: no-protein control; reading: higher = stronger binding
Target: RNA binding protein fox-1 homolog 2, RRM domain, GST-SBP tag (RBFOX2, Homo sapiens, UniProt O43251-10, residues 100-194)
Setting: natural RNA segment, single round, ends assumed
Residues (chain): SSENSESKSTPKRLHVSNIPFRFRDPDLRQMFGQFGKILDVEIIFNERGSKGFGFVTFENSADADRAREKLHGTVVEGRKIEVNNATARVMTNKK
Under “RBNS enrichment (R)”, `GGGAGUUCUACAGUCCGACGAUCUUUUUAUAUUUUUAGAGACAGGGAUUCAACAUGUUGGUUAGGCUGGUCUUGAACUCCUCACCUCAGGUGAUCCACAUGACUCUGCCUCCCAAAGUGCUGCCAUUACAGGCUGGAAUUCUCGGGUGCCAA` is recorded as 0.425.
For `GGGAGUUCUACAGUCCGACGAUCCUUUAACCUCUUAGUUGUCUAAGAGUUAAAUAUUACUGAAUUUCAGACGUUCAAAUUGAUCAUCACAAAUCCUUUAAAACAAUUACCUAAAAGAAACCAAAAAUCCUGCCUGGAAUUCUCGGGUGCCAA`, “RBNS enrichment (R)” read 0.778.
For `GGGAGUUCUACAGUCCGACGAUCGAACAGUCUCCCUCGUCCCACCCACUGCCUCGUUAACUAGAUCCCACAUCAGUGUGCUGAGUACCUGACCUCCAGGAUCUCCUCCACUUUGUUCUCACACCCCACUGCCCUGGAAUUCUCGGGUGCCAA`, “RBNS enrichment (R)” read 1.43.
Under “RBNS enrichment (R)”, `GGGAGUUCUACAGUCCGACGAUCCCACACACAGCACAGAGAGCAGAGUUUAACCAUAGAUCAUGGUAGGCUCAACAUUCCCUUCUAAAGCUGCAAGCCAAUCACUGUAACUGUAGCUGAGGAGGAGGGGAAGCUGGAAUUCUCGGGUGCCAA` is recorded as 0.256.
For `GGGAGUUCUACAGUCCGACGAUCACAGUUACAACCCACUGGGGCUGGUGGGAGAUGCGUUGUAUGGGACUGGAAGCAAGAGGUUCAUUCAAAGAGAAACUCAUGGGAUUUGUAACCAGAUGAAUCAUGAUUUCUGGAAUUCUCGGGUGCCAA`, “RBNS enrichment (R)” read 1.
Under “RBNS enrichment (R)”, `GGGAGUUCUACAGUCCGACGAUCUCCCUAGUUUUCUAGGUGAGCUUCAUUCCCUGAAAGGAGGAUGAUGAUAUCUAGGCAUAACCUAGCCUGUGAGGAACCUAGUUAGGAAAGACAACUGACAUUUAUUGAAUUGGAAUUCUCGGGUGCCAA` is recorded as 0.369.
`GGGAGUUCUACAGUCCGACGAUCUAAGCUAACACUUUUAACAACGGUUACAAUGUUAAGUGAAGUUCAUGGAUUUAACAACAAAACAGAUGAAAUGUCAUUGUUUUUUUUUUCCAAGUCACUAAAGAGUUACUUGGAAUUCUCGGGUGCCAA` — result for “RBNS enrichment (R)”: 0.79.
Under “RBNS enrichment (R)”, `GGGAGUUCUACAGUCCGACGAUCGUCUCCACCGAAUCCAUUUAGAGAAAUGUCAGAGCGAGGGUUGUGUGGACACCCCUCGCUCUGAUGCCAACUGCAGAUAAUACACACCUCCUGCAGCGUCCAGCCACGGCUGGAAUUCUCGGGUGCCAA` is recorded as 0.479.

Study 3 — method: universal PBM; form: double-stranded DNA, one strand shown; medium: in vitro; concentration: not given; reading: higher = stronger binding
Target: Sal-like protein 4, full length isoform B (SALL4, Homo sapiens, UniProt Q9UJQ4-2, residues 1-616)
Setting: 8-mer, flanks averaged, mean of replicates
The E-score of `CATGCTCA` is reported as 0.0213.
The E-score of `GCTCAAGC` is reported as -0.109.
`AGGAAAGC` has an E-score of -0.0706.
`ATAGGACA` gave an E-score of -0.0329.
`CTGGGGGA` gave an E-score of -0.235.
For `AACACATA`, the E-score was 0.321.
The E-score of `GGACGGGA` is reported as -0.178.
`ATTGATAC` gave an E-score of 0.188.
For `GGAGGGTA`, the E-score was -0.126.
`CGTAAAGC` has an E-score of -0.0819.
The E-score of `ATTGAGGA` is reported as 0.0728.
`ACAGAGTC` gave an E-score of -0.193.
`GGCCGGCA` has an E-score of -0.237.
`ACGCAATG` has an E-score of 0.0196.
`AGCTTGCA` has an E-score of 0.0277.
`GCGACAAC` gave an E-score of -0.0369.
The E-score of `ACAATCTC` is reported as 0.0577.
`AGGCGCCT` has an E-score of -0.219.

Study 4 — method: protein-binding microarray; form: double-stranded DNA, one strand shown; medium: in vitro; concentration: 2540 nM top; setting: 60-bp whole probe; together with: salmon DNA 0.4 mg/ml; reference: random background probes; reading: higher = stronger binding; all sequences stand within: GCCTAGCAC … GTCTTGATTCGCTTGACGCTGCTG
Target: Interferon regulatory factor 3, full length, phosphomimetic (IRF3, Homo sapiens, UniProt Q14653, residues 1-427, S386D/S396D/S398D/S402D/T404D/S405D)
Chain of UniProt Q14653 (whole entry, unmodified, looked up): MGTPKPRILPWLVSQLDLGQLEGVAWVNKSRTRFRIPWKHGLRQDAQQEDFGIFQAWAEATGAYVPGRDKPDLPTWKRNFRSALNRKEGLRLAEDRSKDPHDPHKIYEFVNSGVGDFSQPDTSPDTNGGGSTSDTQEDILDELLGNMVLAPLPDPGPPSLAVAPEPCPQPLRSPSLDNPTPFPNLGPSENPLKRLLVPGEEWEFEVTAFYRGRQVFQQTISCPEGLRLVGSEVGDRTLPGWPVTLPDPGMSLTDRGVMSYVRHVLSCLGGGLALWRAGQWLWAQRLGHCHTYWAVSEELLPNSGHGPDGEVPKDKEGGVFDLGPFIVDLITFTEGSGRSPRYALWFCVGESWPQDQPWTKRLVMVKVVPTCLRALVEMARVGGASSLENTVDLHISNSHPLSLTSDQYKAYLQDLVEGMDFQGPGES
For `GACGGAATCCTTTTCCTGACGTGCTAG`, “fitted relative affinity” read 4.07 z-score.
`TTAGCTATCGGGTTTCGGTTAGTGCTA`: “fitted relative affinity” 2.62 z-score.
`GACGGTCTCCTTTTCCTGATGTGCTAG` — result for “fitted relative affinity”: 4.43 z-score.
Under “fitted relative affinity”, `ATAAATATGAGACTGGGGATGTGCTAG` is recorded as -0.286 z-score.
Under “fitted relative affinity”, `TTAGGTATCGGGTTTCGTTTAGTGCTA` is recorded as 2.95 z-score.
Under “fitted relative affinity”, `TGTTTTACAGGTTCTCTTTTAGTGCTA` is recorded as 1.76 z-score.
`GACGATTTCAGACTGGAGCCGTGCTAG` — result for “fitted relative affinity”: 0.925 z-score.
`AACGATTTCGGGTATCGAGACGTGCTA` — result for “fitted relative affinity”: 1.42 z-score.
Under “fitted relative affinity”, `TCATTTTATGCTTTCTTACTGTGCTAG` is recorded as 1.83 z-score.
For `TCACCTTGGCCTCTAGGACTGTGCTAG`, “fitted relative affinity” read -0.41 z-score.
`GATGGTTTCGGTCTCGGGACGTGCTAG` — result for “fitted relative affinity”: 8.46 z-score.
`TTAGGTATCGACACTGGGCTAGTGCTA`: “fitted relative affinity” 0.124 z-score.
`CACTCTCTGCTTGTGTCTGGGTGCTAG`: “fitted relative affinity” 1.34 z-score.
Under “fitted relative affinity”, `TCAGTTCCCTATATAAGACTGTGCTAG` is recorded as 3 z-score.
For `TGCTCTTTCTACATAGATGTGTGCTAG`, “fitted relative affinity” read 1.75 z-score.
`GACGGACTGCCTTTCCTGACGTGCTAG` — result for “fitted relative affinity”: 0.0368 z-score.

Some of these lines once more (study 3):
The E-score of `ACAATCTC` is reported as 0.0577.
The E-score of `ATTGAGGA` is reported as 0.0728.
`GCGACAAC` gave an E-score of -0.0369.
`ACAGAGTC` gave an E-score of -0.193.
The E-score of `CATGCTCA` is reported as 0.0213.
`GGCCGGCA` has an E-score of -0.237.
`ATTGATAC` gave an E-score of 0.188.
`ATAGGACA` gave an E-score of -0.0329.
